{"data": "Experimental data gathered from unrelated publications", "note": "Numbered parts are unrelated; each lists some results of a single study."}
{"data": "Block 1", "target": "RING finger protein unkempt homolog, zinc fingers 1-6, GST-SBP tag (UNK, Homo sapiens, UniProt Q9C0B0, residues 30-357)", "method": "RNA Bind-n-Seq", "form": "RNA", "medium": "in vitro", "concentration": "not given", "notes": "RNA with constant flanks, human-mouse chimeric sites, ends assumed", "baseline": "input RNA pool", "direction": "higher = stronger binding", "sequence of UniProt Q9C0B0 (30-357, looked up)": "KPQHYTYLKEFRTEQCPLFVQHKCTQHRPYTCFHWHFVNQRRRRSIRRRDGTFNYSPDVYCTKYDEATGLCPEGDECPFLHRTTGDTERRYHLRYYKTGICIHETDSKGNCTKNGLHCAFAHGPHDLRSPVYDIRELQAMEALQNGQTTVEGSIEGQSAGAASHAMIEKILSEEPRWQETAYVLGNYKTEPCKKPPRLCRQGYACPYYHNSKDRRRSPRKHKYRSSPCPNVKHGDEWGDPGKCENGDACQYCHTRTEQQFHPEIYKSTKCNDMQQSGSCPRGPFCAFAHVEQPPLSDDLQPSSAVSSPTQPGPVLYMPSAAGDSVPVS"}
{"Oligonucleotide": "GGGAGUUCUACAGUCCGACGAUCCUGAGGAUACCACUGAAGAGACCUUAAAAGAAUCAUUUUGACGGCUCGUUCGUGCAAGAAUAGUCACUGAUCGGGAAAACUGGGUCCCCAAAGGGUUUGGUUUUGUAGACUUUAAUAGUGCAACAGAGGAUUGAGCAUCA", "bound/input enrichment [ratio]": 0.747}
{"Oligonucleotide": "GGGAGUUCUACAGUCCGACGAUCGCUGAAAAUGAAGAAGAGGCAGCUGAUGUCUGGUACAACCUGGGGCACAUAGCUGUGGGAAUCGGAGAUACAAAUUUGGCCCACCAAUGCUUCAGGCUGGCCCUGGUCCACAACAACCACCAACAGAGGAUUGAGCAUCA", "bound/input enrichment [ratio]": 0.161}
{"Oligonucleotide": "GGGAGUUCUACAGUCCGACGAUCCAGUCCCCGUGUCCCAGUGCAGGACGAGAACAUGGACAACUCAAAGCGGACCCUCUAUUGUAGUUCUUGAUUCUCGAAAUGUGCUAUUAUUGUUUGUAAAAAAGGAAUUUUUUUUAAAGACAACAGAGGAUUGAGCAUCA", "bound/input enrichment [ratio]": 0.159}
{"Oligonucleotide": "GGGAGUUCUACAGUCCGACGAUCAUAAAGGCUAUGUUGAGUGGUCCAGGUCAGUUUGCUGAGAACGAAACCAAUGAGGUCAAUUUUAGAGAGAUCCCCUCACAUGUGCUAUCAAAAGUGUGCAUGUAUUUUACCUACAAGGUCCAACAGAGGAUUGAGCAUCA", "bound/input enrichment [ratio]": 0.105}
{"Oligonucleotide": "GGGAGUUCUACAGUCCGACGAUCUUGCUACUAACUCCAUGGGUCAAGUUCCUGUGGGAAUCUUACAGGCAGUGUUUGGACCUUCUUCGAAACAAUUCUAGAGUAGAGCGCCUUUACCAUGAUAUCGCCCAACAAGCUUUCAAACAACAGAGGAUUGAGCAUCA", "bound/input enrichment [ratio]": 0.194}
{"Oligonucleotide": "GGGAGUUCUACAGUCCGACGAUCACUCUUGACUCUUUCCAUUCUCGUCCCUUCCCUCUUGAUCUUCAAGGCCAUGAAUCCCAAAAUAACAGUCUUAGUGGCUAGCACCCAAACAGAGGUGGAAUAAAUCCACCCCAGUGUCUCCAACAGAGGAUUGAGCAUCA", "bound/input enrichment [ratio]": 0.65}
{"data": "Block 2", "target": "Interferon regulatory factor 5, full length, phosphomimetic (IRF5, Homo sapiens, UniProt Q13568-2, residues 1-514, K96S/S451D/S453D/S456D/S462D)", "method": "protein-binding microarray", "form": "double-stranded DNA, one strand shown", "medium": "in vitro", "concentration": "250 nM", "notes": "60-bp whole probe", "together with": "salmon DNA 0.4 mg/ml", "baseline": "random background probes", "direction": "higher = stronger binding", "constant ends, left off below": "GCCTAGCAC … GTCTTGATTCGCTTGACGCTGCTG"}
{"Oligonucleotide": "TCAGTACTTTCTATCTCACTGTGCTAG", "log fluorescence [z-score]": 4.91}
{"Oligonucleotide": "TCATCTTTACTGCTCCAACTGTGCTAG", "log fluorescence [z-score]": 0.364}
{"Oligonucleotide": "TTAGGTATCGGTATCGGCTAGTGCTAG", "log fluorescence [z-score]": 8.07}
{"Oligonucleotide": "ATTTTTTTGTAATCGAAATCTGTGCTA", "log fluorescence [z-score]": 1.67}
{"Oligonucleotide": "GACGGTTTCGGTTTTCGGGACGTGCTA", "log fluorescence [z-score]": 9.88}
{"Oligonucleotide": "TCATACATGGGTATAGAACTGTGCTAG", "log fluorescence [z-score]": -0.1}
{"Oligonucleotide": "AACGAACTGAGTTTCGAGACGTGCTAG", "log fluorescence [z-score]": 4.61}
{"Oligonucleotide": "TCAAGTTTATTTATTTTACTGTGCTAG", "log fluorescence [z-score]": 0.746}
{"Oligonucleotide": "TCAGTTCCCTATTTAAGACTGTGCTAG", "log fluorescence [z-score]": 0.517}
{"Oligonucleotide": "ATTTGCTTCAGGTTTACCAGAGTGCTA", "log fluorescence [z-score]": 0.288}
{"Oligonucleotide": "GACGATTGCAGTTTCGAGACGTGCTAG", "log fluorescence [z-score]": 4.18}
{"data": "Block 3", "target": "Sal-like protein 4, full length isoform B (SALL4, Homo sapiens, UniProt Q9UJQ4-2, residues 1-616)", "method": "universal PBM", "form": "double-stranded DNA, one strand shown", "medium": "in vitro", "concentration": "not given", "notes": "8-mer, flanks averaged, mean of replicates", "direction": "higher = stronger binding", "Target sequence (chain)": "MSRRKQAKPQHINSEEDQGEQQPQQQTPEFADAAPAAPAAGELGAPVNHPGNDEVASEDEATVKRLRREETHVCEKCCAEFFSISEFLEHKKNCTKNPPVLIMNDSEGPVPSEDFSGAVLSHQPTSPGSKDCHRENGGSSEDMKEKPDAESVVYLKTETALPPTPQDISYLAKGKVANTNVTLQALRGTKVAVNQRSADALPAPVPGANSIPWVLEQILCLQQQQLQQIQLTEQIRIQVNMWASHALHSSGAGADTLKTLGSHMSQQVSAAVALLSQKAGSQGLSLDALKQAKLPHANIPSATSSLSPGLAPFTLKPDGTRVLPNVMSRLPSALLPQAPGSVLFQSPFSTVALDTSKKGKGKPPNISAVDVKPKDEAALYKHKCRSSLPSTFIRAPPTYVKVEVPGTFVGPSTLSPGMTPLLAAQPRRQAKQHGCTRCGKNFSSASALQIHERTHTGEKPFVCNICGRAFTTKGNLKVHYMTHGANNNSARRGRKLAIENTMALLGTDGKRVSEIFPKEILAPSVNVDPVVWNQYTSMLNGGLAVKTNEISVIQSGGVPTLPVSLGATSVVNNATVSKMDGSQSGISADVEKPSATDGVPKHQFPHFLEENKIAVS"}
{"Oligonucleotide": "ATCTCTCG", "E-score": -0.0953}
{"Oligonucleotide": "CTGATATA", "E-score": 0.3}
{"Oligonucleotide": "AGGTGACA", "E-score": 0.0285}
{"Oligonucleotide": "ACATTTTG", "E-score": 0.29}
{"Oligonucleotide": "AAACTCTT", "E-score": -0.0445}
{"Oligonucleotide": "CGCCTACA", "E-score": -0.0223}
{"Oligonucleotide": "ACACTCAA", "E-score": 0.0906}
{"Oligonucleotide": "GCTCTAAC", "E-score": -0.182}
{"Oligonucleotide": "TCACCAAA", "E-score": 0.247}
{"Oligonucleotide": "GATCGTCC", "E-score": -0.185}
{"data": "Further values, each from its own experiment"}
{"Substance": "PhoQ, residues 284 288 289 292 302 303 NSMLDC", "target": "PhoP, residues 12 14 15 18 19 IQFRS (Escherichia coli, UniProt P23836)", "assay": "Sort-seq, refers to: YFP reporter", "test system": "E. coli", "setting": "PhoQ-PhoP variant library, together with: 10 µM Mg2+", "how to read": "baseline: high Mg2+ state, higher = stronger signaling", "quantity": "fold induction", "result": 23.1}
{"note": "For quick reference, copied from above (block 2):"}
{"Oligonucleotide": "TCATCTTTACTGCTCCAACTGTGCTAG", "log fluorescence [z-score]": 0.364}
{"Oligonucleotide": "TCAGTACTTTCTATCTCACTGTGCTAG", "log fluorescence [z-score]": 4.91}
{"Oligonucleotide": "GACGATTGCAGTTTCGAGACGTGCTAG", "log fluorescence [z-score]": 4.18}
